Published values of several laboratories.
Each line is one published result; not all experiments were run side by side. ± marks the error that the study gave.
Cell line: HCT-15

Structure (SMILES)	effect on	technique	time	IC50
CCCC(CCC)C(=O)[O][Pt]([NH2])([NH2])([Cl])([Cl])[O]C(=O)c1ccccc1OC(C)=O	cell growth or viability	MTT	72 h	4.51 µM
C=C[CH2][Pd-]([Cl])[Cl].Cc1cc(C)c(-n2c[n+](-c3c(C)cc(C)cc3C)c3c2-c2cccc4cccc-3c24)c(C)c1	cell growth or viability	MTT	72 h	3 µM
CN1CCC(S(=O)(=O)NC23CCCC(C)(CCC4C2CC4(C)C)C3)CC1 (centres unmarked)	cell growth or viability	CCK-8	72 h	7.69 µM
CC(C)c1cccc(C(C)C)c1-n1c(Cl)c(Cl)n(-c2c(C(C)C)cccc2C(C)C)c1=[Se].[Cl][Ag]	cell growth or viability	MTT	72 h	2.3 µM
CCCC(CCC)C(=O)[O][Pt]([NH2])([NH2])([Cl])([Cl])[O]C(=O)C(C)c1ccc(CC(C)C)cc1 (centres unmarked)	cell growth or viability	MTT	72 h	3.98 µM
C=C[CH2][Pd-]([Cl])[Cl].CC(C)c1cccc(C(C)C)c1-n1c[n+](-c2c(C(C)C)cccc2C(C)C)c2c1-c1cccc3cccc-2c13	cell growth or viability	MTT	72 h	10.4 µM
O=C(O)CCCc1ccccc1	cell growth or viability	–	72 h	1210 µM
CC1CN(C(=O)c2cn(C34CCCC(C)(CCC5C3CC5(C)C)C4)nn2)CCN1 (centres unmarked)	cell growth or viability	CCK-8	72 h	11.2 µM
CC(C)c1cccc(C(C)C)c1N1CCN(c2c(C(C)C)cccc2C(C)C)C1=[Se].[Cl][Au]	cell growth or viability	MTT	72 h	7.8 µM
CN1CCCC1CS(=O)(=O)NC12CCCC(C)(CCC3C1CC3(C)C)C2 (centres unmarked)	cell growth or viability	CCK-8	72 h	16.9 µM
CCCC(CCC)C(=O)[O][Pt]([Cl])([Cl])[O]C(C)=O.N.N	cell growth	–	72 h	6.36 ± 1.03 µM
CC1CNCCN1C(=O)c1cn(C23CCCC(C)(CCC4C2CC4(C)C)C3)nn1 (centres unmarked)	cell growth or viability	CCK-8	72 h	12.3 µM
CC(C)c1cccc(C(C)C)c1-n1ccn(-c2c(C(C)C)cccc2C(C)C)c1=[Se].[Cl][Au]	cell growth or viability	MTT	72 h	8.3 µM
CCCC(CCC)C(=O)[O][Pt]([NH2])([NH2])([Cl])([Cl])[O]C(=O)C(Cl)Cl	cell growth or viability	MTT	72 h	3.11 µM
NC1CCCCC1N.O=C(CCCc1ccccc1)[O][Pt]1([O]C(=O)CCCc2ccccc2)[O]C(=O)C(=O)[O]1	cell growth	–	72 h	12.5 ± 1.13 µM
C[C@H](CCC=O)[C@@H]1CC[C@]2(C)C3=C(CC[C@@]12C)[C@@]1(C)CC[C@H](O)C(C)(C)[C@@H]1CC3	cell growth or viability	SRB	–	39 µM
CC(=O)[O][Pt]1([O]C(C)=O)[O]C(=O)C(=O)[O]1.NC1CCCCC1N	cell growth	–	72 h	48.3 ± 3.33 µM
Cc1c(C)n(-c2c(C(C)C)cccc2C(C)C)c(=[Se])n1-c1c(C(C)C)cccc1C(C)C.[Cl][Ag]	cell growth or viability	MTT	72 h	2.2 µM
CC(C)c1cccc(C(C)C)c1-n1c2c([n+](-c3c(C(C)C)cccc3C(C)C)[c]1[Au-][Cl])-c1cccc3cccc-2c13	cell growth or viability	MTT	72 h	22 µM
CNCCNC(=O)c1cn(C23CCCC(C)(CCC4C2CC4(C)C)C3)nn1 (centres unmarked)	cell growth or viability	CCK-8	72 h	15.6 µM
CC(C)Cc1ccc(C(C)C(=O)[O][Pt]([NH2])([NH2])([Cl])([Cl])[O]C(=O)C(Cl)Cl)cc1 (centres unmarked)	cell growth or viability	MTT	72 h	0.65 µM
N.N.O=C(CCCc1ccccc1)[O][Pt]([Cl])([Cl])[O]C(=O)CCCc1ccccc1	cell growth	–	72 h	0.31 ± 0.04 µM
Cc1cc(C)c(-n2c3c([n+](-c4c(C)cc(C)cc4C)[c]2[Cu-][Cl])-c2cccc4cccc-3c24)c(C)c1	cell growth or viability	MTT	72 h	9 µM

Some of these lines once more:
Structure (SMILES)	effect on	technique	time	IC50
CC1CN(C(=O)c2cn(C34CCCC(C)(CCC5C3CC5(C)C)C4)nn2)CCN1 (centres unmarked)	cell growth or viability	CCK-8	72 h	11.2 µM
CCCC(CCC)C(=O)[O][Pt]([NH2])([NH2])([Cl])([Cl])[O]C(=O)c1ccccc1OC(C)=O	cell growth or viability	MTT	72 h	4.51 µM
N.N.O=C(CCCc1ccccc1)[O][Pt]([Cl])([Cl])[O]C(=O)CCCc1ccccc1	cell growth	–	72 h	0.31 ± 0.04 µM
